Published values pooled from the literature.
Numbered parts are unrelated; each lists some results of a single study. “And” joins repeats or separate records; there may be more than shown.

Study 1
Host: C57BL/6 IFN-γ knockout mouse female
Medium: plasma
Route: oral
Dose: 10 mg/kg
Time: 1 h
Endpoint: plasma concentration
COC(=O)c1cc(Cl)ccc1N(C)C(=O)c1ccn2ncc(-c3ccc(C(N)=O)cc3)c2c1: 44 nM and 30 nM
CN(C(=O)c1ccn2ncc(-c3ccc(C(N)=O)cc3)c2c1)c1ccc(C#N)cn1: 618 nM and 560 nM
CNC(=O)c1ccc(-c2cnn3ccc(C(=O)N(C[C@H]4CCC(=O)O4)c4ccc(OC(F)(F)F)cc4)cc23)cc1: 46 nM and 18 nM and 31 nM
CCOC(=O)CN(C(=O)c1ccn2ncc(-c3ccc(C(=O)NC)cc3)c2c1)c1ccc(Cl)cc1: 301 nM and 336 nM

Study 2
SMILES: c1ccc(Oc2ccc(Nc3c4c(nc5ccccc35)CCC4)cc2)cc1
Organism: Leishmania infantum
Technique: qPCR, delta Ct
Host: golden hamster, infected
Route: oral
Dose: 10 mg/kg/day
Time: 10 days
Reference: microglobulin reference gene
Endpoint: relative mRNA level
measured: IL4; liver: 6.51 and 6.62 and 10.6 and 7.53 and 8.71 and 4.48
measured: TGF-beta; spleen: -0.0545 and 0.625 and 1.31 and 3.31 and 1.06 and -0.12
measured: IL10; liver: 10.6 and 10.1 and 12.8 and 13 and 12.3 and 11.6
measured: TNF; spleen: -0.288 and 0.449 and -0.111 and 1.3 and 1.05 and 3.96
measured: IL17; liver: 11.8 and 14 and 12.9 and 13.5 and 11
measured: IL4; spleen: -0.246 and 0.571 and 4.02 and 1.21 and 0.482 and -0.278
measured: IL17; spleen: 9.37 and 7.88 and 9.12 and 7.53 and 8.17 and 6.73
measured: TNF; liver: 8.79 and 7.17 and 4.74 and 8.93 and 6.4 and 6.33

Study 3
Host: human
Medium: microsomes or S9
Tested at: 2 µM
Time: 0.5 h
Endpoint: remaining compound
CCOc1ccc(N2C(=O)c3c(C(=O)OC)ncn3CC2(C)C(=O)NC2CCCCCC2)cc1 (stereo not shown): 40.8%
CCOc1cc(=O)n2c(c1C(=O)NCC1CCCO1)CCCCC2 (stereo not shown): 91.7%
Cc1cc(C)c(-c2n[nH]cc2-c2nc3ccccc3s2)c(O)c1: 45.9%
CC(C)n1c(=O)ccc2cnc(Nc3ccc(N4CCN(C)CC4)cc3)nc21: 82.7%
CC(C)[C@@H](C(=O)Nc1n[nH]c2cccc(F)c12)N1Cc2ccccc2C1=O: 71.7%
COC(=O)c1cccc2[nH]c(NCc3c(C)nn(C(C)(C)C)c3C)nc12: 27.5%
Cc1noc(C2CCCN2C(=O)c2ccnc3c2nnn3C)n1 (stereo not shown): > 100%
CCOC(=O)Cn1nc(C)c(NC(=O)Cn2nc(C)c(Br)c2C)c1C: 88.4%

Other studies, line by line
O=C1CCC(N2Cc3cc(C4CCN(Cc5ccccc5)CC4)ccc3C2=O)C(=O)N1 (stereo not shown)
oral bioavailability (Sprague Dawley rat, male, plasma; oral, 3.0 mg/kg): 41.3%

CNC(=N)NCCC[C@H](NC(=O)[C@H](CC(C)C)NC(=O)NNC(=O)[C@H](Cc1ccccc1)NC(=O)[C@H](CO)NC(=O)[C@H](CC(N)=O)NC(=O)[C@@H](Cc1cccnc1)NC(=O)[C@H](N)Cc1ccc(O)cc1)C(=O)NCC(N)=O
viability (sample I colorectal tumour organoid; 0.1 µM, replicate 1; reference: DMSO): 135%
